Assay results gathered from unrelated publications.
A part holds a random share of what one study measured. Substitutions count along the parent as printed.

Series 1
Target: Ras GTPase-activating protein-binding protein 1, full length (G3BP1, Homo sapiens, UniProt Q13283)
Chain of UniProt Q13283 (whole entry, looked up): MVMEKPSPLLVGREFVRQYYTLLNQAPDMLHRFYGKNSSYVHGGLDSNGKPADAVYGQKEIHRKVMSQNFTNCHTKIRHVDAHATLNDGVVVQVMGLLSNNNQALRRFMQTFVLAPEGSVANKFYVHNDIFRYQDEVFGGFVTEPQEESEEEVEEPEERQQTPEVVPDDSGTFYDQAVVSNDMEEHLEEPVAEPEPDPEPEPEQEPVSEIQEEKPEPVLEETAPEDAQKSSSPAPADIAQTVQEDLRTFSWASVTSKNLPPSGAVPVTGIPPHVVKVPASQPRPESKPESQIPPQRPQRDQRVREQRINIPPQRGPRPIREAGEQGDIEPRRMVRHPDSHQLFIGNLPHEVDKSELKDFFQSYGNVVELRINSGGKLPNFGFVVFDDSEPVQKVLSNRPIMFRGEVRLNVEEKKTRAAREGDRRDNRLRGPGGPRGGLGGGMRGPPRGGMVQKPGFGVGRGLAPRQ
Method: RNA Bind-n-Seq
Form: RNA
Sample: in vitro
Concentration: 200 nM
Notes: whole 134-nt RNA, ends assumed
With: 150 mM LiCl
Reference: input library
Reading: higher = stronger binding
Each molecule: 7-deaza-guanosine replaces G
Shared flanks, not repeated: GGGAGUUCUACAGUCCGACGAUC … UGGAAUUCUCGGGUGUCAAGG
| Sequence | log2 enrichment |
| --- | --- |
| GCAGGAAGUAAAAACAAAUGGAAAUGCUUCGGAUAGUGGCAGGGGUGGGGGUUGCUAAGGAAAGGGUGGUAUGGGAGUGGGUAAAGAGUU | 0.107 |
| ACCAUGCAGGUGGGCAUCUUUGGGAAGUGGGGCAAGGGGGGGAUCGGGAGGGGGGUAACACUUUGGGAACAGGUGGUCCCAGGUCGUUUC | -0.0902 |
| GCAGGAAGUAAAAACAAAUGGAAAUGCUUCGGAUAGUGGCAGGGGUGGGGGUUGCUAAGGAAAAAAUGGGAUGGGAGUGGGUAAAGAGUU | 0.424 |
| CACAGACAACACGCACCCACACAGACACAGAGGGAAGGGGUUGGGAUGGGGACAGGGUGCACAGCAGGGCGGGGGAGGACCCCAGCCCCU | 0.881 |
| UAACUUUAGAGGAGGAUCUGAUGGAUAUGGCAGUGGACGUGGAUUUGCGGAUGGCUAUAAUGGGUAUGGAGGAGGACCUGGAGGUGGCAA | -0.00761 |
| UGUAACCUGGGGAUUCUCUCAACUCUCUUGUCCCACACAGACUUCUAUGAGGAAAUCCAGGAGUUUGUGAAAGAUGUCUUUUCACCUAUA | 0.792 |
| UCCUGUGCUACACAUCGUAUGUACCGAAUCGGGUUUUUUUGGGUUUGGGAAAAAAAGGGAAAGUAUUAUGUUACGCCGUUCGGAUCUGCA | -0.511 |
| GUCCUGUGCUACACAUCGUAUGUACCGAAUCGGGGCCCCCGGGGCCCCCGGCCCCCGGGAAAGUAUUAUGUUACGCCGUUCGGAUCUGCA | -1.2 |

Series 2
Target: UDP-N-acetylglucosamine--peptide N-acetylglucosaminyltransferase 110 kDa subunit (OGT, Homo sapiens, UniProt O15294)
Chain of UniProt O15294 (whole entry, looked up): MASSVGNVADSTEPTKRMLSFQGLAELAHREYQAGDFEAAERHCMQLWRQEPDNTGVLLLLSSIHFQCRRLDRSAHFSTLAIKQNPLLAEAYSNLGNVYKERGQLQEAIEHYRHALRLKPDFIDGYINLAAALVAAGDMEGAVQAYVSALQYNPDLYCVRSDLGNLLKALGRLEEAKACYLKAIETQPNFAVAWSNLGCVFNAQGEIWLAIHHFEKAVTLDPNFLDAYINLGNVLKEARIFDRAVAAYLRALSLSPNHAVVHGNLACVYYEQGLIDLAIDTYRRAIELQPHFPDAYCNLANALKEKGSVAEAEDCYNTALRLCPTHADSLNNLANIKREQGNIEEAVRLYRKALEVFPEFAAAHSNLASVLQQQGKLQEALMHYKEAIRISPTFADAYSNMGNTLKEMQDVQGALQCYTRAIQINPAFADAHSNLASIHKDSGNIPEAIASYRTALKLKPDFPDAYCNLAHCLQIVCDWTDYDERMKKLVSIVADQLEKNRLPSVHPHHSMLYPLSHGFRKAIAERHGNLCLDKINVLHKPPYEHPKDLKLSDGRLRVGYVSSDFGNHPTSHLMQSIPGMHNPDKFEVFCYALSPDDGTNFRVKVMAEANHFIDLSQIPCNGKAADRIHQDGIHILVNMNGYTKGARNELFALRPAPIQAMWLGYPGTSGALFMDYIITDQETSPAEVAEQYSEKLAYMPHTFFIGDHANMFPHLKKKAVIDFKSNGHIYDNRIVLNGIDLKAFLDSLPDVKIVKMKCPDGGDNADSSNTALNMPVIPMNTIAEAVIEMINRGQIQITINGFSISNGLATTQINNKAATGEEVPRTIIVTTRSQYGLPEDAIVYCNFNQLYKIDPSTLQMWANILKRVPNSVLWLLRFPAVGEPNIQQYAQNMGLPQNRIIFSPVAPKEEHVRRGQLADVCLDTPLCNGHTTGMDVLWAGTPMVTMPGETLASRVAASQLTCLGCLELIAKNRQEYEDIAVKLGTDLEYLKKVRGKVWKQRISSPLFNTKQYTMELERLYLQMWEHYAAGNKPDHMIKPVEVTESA
Observed: binding
Method: phage display NGS
Form: peptide
Concentration: concentration not given
Reference: input library
| Molecule | enrichment fold change |
| --- | --- |
| NHAHYATDSHTHNHQ | 4.94 |
| QPYFLPKYVITVDNS | 8.47 |
| HPTWPVEHHHDKIYS | 7.07 |
| SWAPWHIASQRHQDF | 3.39 |
| FPHHPQDHMRLNVFT | 3.11 |
| WNAPRHHDTHWHVYT | 4.95 |
| YFPPVYEMQVKHFQ | 5.03 |
| TYHAAHVRTWSQHHA | 6.22 |
| HVWSSKYSMHHQSSI | 4.3 |
| AHAIHPDLHQYHSHQ | 3.03 |
| DDTGPFQPMYQIQII | 54.4 |
| QPIHSHAIWPHGTHH | 9.17 |
| HSKVHSHDVVTIYHH | 3.74 |
| YMVDTHHKHHQHPVF | 3.79 |
| WGPQHMRHHYAHQHT | 5.72 |

Series 3
Target: TAR DNA-binding protein 43, full length, His tag (TARDBP, Homo sapiens, UniProt Q13148, residues 1-414)
Method: RNA Bind-n-Seq
Form: RNA
Sample: in vitro
Concentration: 20 nM
Notes: 6-mer, flanks averaged, single round
With: 150 mM LiCl
Reference: input library
Reading: higher = stronger binding
| Sequence | 6-mer enrichment (R) |
| --- | --- |
| CCUCUG | 0.928 |
| GGUCUC | 0.879 |
| GUAAUA | 0.944 |
| CCGUAC | 0.841 |
| CUAUAA | 0.943 |
| CGGCAG | 0.975 |
| UGCGCA | 1.03 |
| GGAACU | 0.956 |

Series 4
Target: tungstate, free oxyanion
Method: microfluidic competitive inhibition
Sample: in vitro, cell-free expressed
Concentration: not given
Notes: derived from inhibition constants, unchanged parent 2230 nM
Reading: lower = stronger binding
Starting sequence: PafA, mature enzyme, eGFP fusion (Elizabethkingia meningoseptica, UniProt Q9KJX5); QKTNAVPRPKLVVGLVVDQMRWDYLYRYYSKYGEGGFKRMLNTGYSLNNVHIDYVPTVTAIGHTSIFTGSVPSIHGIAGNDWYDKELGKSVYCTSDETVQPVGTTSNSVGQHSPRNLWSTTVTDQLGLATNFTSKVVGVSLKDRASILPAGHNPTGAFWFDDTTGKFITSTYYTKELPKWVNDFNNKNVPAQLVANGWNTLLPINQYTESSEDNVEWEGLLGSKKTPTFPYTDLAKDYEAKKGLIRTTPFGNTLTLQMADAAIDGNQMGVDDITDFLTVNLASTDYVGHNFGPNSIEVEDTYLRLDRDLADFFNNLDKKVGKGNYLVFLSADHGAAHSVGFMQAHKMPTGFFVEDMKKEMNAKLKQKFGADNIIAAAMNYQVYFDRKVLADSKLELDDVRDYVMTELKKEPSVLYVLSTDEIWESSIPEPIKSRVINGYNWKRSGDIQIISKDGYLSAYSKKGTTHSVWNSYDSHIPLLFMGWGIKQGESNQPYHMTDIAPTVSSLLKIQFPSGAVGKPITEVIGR
| Substitution | oxyanion analog dissociation constant [µM] |
| --- | --- |
| T228G | 1.54 |
| V181A | 1.93 |
| R400V | 2.41 |
| V503A | 1.78 |
| W441V | 1.34 |
| P149G | 1.28 |
| V189G | 2.15 |
| D162V | 1.55 |
| Y494G | 1.42 |
| E212G | 1.95 |
| E424G | 2.38 |
| L193V | 1.8 |
| R115V | 2.54 |
| E489G | 1.96 |

A few entries again (series 2):
| Molecule | enrichment fold change |
| --- | --- |
| HPTWPVEHHHDKIYS | 7.07 |
| SWAPWHIASQRHQDF | 3.39 |
| FPHHPQDHMRLNVFT | 3.11 |
| WNAPRHHDTHWHVYT | 4.95 |
